Measured values pooled from the literature.
Protocols differ between the studies behind these lines. “And” joins repeats or separate records; there may be more than shown. Numbers after ± are the reported error.
Sequence of UniProt Q12851 (whole entry, looked up): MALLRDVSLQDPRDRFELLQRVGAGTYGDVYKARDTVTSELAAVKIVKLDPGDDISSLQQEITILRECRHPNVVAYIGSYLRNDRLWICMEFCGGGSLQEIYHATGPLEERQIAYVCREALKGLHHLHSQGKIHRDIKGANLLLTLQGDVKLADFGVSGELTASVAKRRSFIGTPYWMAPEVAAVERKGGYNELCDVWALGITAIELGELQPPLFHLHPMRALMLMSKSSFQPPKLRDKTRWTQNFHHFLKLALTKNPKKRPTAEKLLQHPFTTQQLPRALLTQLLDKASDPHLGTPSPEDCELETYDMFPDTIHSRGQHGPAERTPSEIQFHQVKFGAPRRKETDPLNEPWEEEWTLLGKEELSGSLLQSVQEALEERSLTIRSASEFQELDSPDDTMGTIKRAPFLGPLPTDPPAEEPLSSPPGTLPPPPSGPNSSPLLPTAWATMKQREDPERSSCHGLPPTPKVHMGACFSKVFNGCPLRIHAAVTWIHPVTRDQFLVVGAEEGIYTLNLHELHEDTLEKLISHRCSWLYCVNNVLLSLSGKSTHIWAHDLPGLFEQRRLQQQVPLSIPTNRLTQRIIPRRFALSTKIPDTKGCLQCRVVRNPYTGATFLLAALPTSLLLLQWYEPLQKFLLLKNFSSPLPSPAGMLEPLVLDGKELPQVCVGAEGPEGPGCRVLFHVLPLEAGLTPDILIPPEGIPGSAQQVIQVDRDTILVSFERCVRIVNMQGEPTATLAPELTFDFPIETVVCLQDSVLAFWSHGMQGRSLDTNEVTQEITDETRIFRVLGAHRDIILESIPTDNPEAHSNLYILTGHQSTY
Sequence of UniProt Q02779 (whole entry, looked up): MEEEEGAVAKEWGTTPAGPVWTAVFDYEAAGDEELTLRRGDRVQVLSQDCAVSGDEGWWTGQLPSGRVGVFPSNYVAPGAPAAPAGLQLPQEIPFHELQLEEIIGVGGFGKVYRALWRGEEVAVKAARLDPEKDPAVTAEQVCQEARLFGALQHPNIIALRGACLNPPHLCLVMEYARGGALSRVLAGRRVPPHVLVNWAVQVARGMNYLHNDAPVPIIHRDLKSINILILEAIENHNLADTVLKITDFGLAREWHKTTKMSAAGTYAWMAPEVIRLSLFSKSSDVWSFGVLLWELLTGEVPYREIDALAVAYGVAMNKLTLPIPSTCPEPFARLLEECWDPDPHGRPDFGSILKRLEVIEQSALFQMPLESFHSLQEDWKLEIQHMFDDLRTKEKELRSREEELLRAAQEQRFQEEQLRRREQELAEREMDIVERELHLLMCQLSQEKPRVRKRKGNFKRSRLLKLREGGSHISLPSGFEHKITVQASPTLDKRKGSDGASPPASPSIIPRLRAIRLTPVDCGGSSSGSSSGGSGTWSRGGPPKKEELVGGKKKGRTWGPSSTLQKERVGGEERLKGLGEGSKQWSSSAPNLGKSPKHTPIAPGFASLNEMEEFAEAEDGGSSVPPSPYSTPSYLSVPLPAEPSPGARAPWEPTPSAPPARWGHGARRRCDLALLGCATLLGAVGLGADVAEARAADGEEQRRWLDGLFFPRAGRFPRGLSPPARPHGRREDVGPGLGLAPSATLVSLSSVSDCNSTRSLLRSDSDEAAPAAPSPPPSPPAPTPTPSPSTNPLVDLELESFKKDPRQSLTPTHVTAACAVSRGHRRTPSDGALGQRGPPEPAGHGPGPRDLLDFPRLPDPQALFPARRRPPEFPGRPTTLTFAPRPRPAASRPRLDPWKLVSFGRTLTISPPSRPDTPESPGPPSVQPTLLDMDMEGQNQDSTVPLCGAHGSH
Sequence of UniProt P37023 (whole entry, looked up): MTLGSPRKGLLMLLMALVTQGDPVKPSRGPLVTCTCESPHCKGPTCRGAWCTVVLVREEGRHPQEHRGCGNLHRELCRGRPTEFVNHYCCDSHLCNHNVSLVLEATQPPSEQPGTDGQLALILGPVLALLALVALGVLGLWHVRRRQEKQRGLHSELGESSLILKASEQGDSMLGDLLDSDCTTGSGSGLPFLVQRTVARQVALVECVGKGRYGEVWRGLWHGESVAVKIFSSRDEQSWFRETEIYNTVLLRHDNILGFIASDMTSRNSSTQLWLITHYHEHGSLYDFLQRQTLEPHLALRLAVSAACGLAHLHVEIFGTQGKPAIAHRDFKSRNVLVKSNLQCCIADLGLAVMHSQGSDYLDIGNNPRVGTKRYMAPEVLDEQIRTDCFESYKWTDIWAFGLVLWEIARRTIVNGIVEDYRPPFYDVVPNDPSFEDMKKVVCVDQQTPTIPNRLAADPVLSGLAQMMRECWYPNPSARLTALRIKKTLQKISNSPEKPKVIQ

COc1ccccc1-c1n[nH]c2nc(NC3CCN(C(=O)Cc4ccc(F)cc4F)CC3)ncc12
relative abundance (bead binding, competition bead pull-down, measured: LINJ.26.1960; Leishmania donovani extract; 10 µM; baseline: vehicle): 1.13

CCCC[C@H]1C(=O)N(C)[C@@H](CCCC)C(=O)N[C@@H](CCCNC(=O)CN2CCN(CC(=O)O)CCN(CC(=O)O)CCN(CC(=O)O)CC2)C(=O)N[C@H](C(=O)NCC(N)=O)CSCC(=O)N[C@@H](Cc2ccc(O)cc2)C(=O)N(C)[C@@H](C)C(=O)N[C@@H](CC(N)=O)C(=O)N2CCC[C@H]2C(=O)N[C@@H](Cc2c[nH]cn2)C(=O)N[C@@H](CC(C)C)C(=O)N(C)CC(=O)N[C@@H](Cc2c[nH]c3ccccc23)C(=O)N[C@@H](CO)C(=O)N[C@@H](Cc2c[nH]c3ccccc23)C(=O)N1C [gallium-68 labelled]
tissue uptake (NOD/SCID mice with CHO-hPD-L1 xenograft, liver; 10 min post injection): 8.46 ± 0.35 %ID/g

CC(C)(C)C(=O)OCOP(=O)(OCOC(=O)C(C)(C)C)C1CCCN(O)C1=O (stereo not drawn)
log LC50 (CAKI-1): > -4 log M

Cc1ccccc1-c1ccc(-c2nc(-c3ccc(CN(C)CCCC(=O)O)c([18F])c3)no2)cc1C(F)(F)F
tracer uptake (rat, muscle; 2 h): 0.1 %ID/g

O=S(=O)(c1ccc2c(c1)OCO2)n1cc(CCCCN2CCC(=C(c3ccc(F)c(F)c3)c3ccc(F)c(F)c3)CC2)nn1
tolerated dose range (dose escalation, measured: body weight; mouse): 10 to 50 mg/kg

CC(=O)c1c(C)c2cnc(Nc3ccc(N4CCNCC4)cn3)nc2n(C2CCCC2)c1=O
total protein (C57BL/6 mice, blood; 25 mg/kg, P25, dosed P10 to P24): 4.6 ± 1 g/dL

CCCCCCCC(=O)N[C@@H](CCCNC(=N)N)C(=O)N[C@@H](Cc1c[nH]c2ccccc12)C(=O)N[C@@H](CCCCN)C(=O)N[C@H](C(=O)N[C@@H](Cc1ccccc1)C(=O)N[C@@H](CCCCN)C(=O)N[C@@H](CCCCN)C(=O)N[C@H](C(=O)N[C@@H](CCC(=O)O)C(=O)N[C@@H](CCCCN)C(=O)N[C@H](C(=O)NCC(=O)N[C@@H](CCC(N)=O)C(=O)N[C@@H](CC(N)=O)C(=O)N[C@H](C(=O)N[C@@H](CCCNC(=N)N)C(=O)N[C@@H](CC(=O)O)C(=O)NCC(=O)N[C@H](C(=O)N[C@H](C(=O)N[C@@H](CCCCN)C(=O)N[C@@H](C)C(=O)NCC(=O)N1CCC[C@H]1C(=O)N[C@@H](C)C(=O)N[C@H](C(=O)N[C@@H](C)C(=O)N[C@H](C(=O)N[C@H](C(=O)NCC(=O)N[C@@H](CCC(N)=O)C(=O)N[C@@H](C)C(=O)N[C@@H](C)C(=O)N[C@H](C(=O)N[C@H](C(N)=O)[C@@H](C)CC)[C@@H](C)O)C(C)C)C(C)C)C(C)C)C(C)C)[C@@H](C)CC)[C@@H](C)CC)C(C)C)[C@@H](C)CC)[C@@H](C)CC
hemolysis (mouse erythrocytes; 32 µM, 1 h, 37 °C): < 8%

COc1ccccc1-c1n[nH]c2nc(N[C@H]3CC[C@H](NS(=O)(=O)CC(C)C)CC3)ncc12
relative abundance (bead binding, competition bead pull-down, measured: LMJF.04.1230; Leishmania donovani extract; 10 µM; baseline: vehicle): 0.82

N#[11C]c1ccc(-c2csc(NN=C3CCCC3)n2)cc1
radioactivity uptake (C57BL/6 mice, male, pancreas; intravenous, 3 MBq, 30 min): 1.53 ± 0.26 %ID/g

CC(C)[C@H]1NC(=O)C[C@H]2/C=C/CCSSC[C@@H](NC1=O)C(=O)N[C@H](Cc1cccc3ccccc13)C(=O)NCC(=O)O2
inhibition (MAP3K10 (Homo sapiens, UniProt Q02779); enzyme activity, inhibitor; 10 µM): -0.8%

O=C1NC2(CC2)COc2ncc(F)cc2[C@H]2COCCN2c2ccn3ncc1c3n2
alanine aminotransferase activity (Sprague-Dawley rat, female, serum; oral, 20 mg/kg/day, 4 weeks daily, end of recovery period): 21 ± 4.5 U/L

CC(C)[C@@H]1NC(=O)CNC(=O)[C@H](CC(N)=O)NC(=O)[C@H](CCCNC(=N)N)NC(=O)[C@H](Cc2ccc(O)cc2)NC(=O)[C@H](C(C)C)NC(=O)[C@@H](NC(=O)[C@@H](NC(=O)[C@H](CC(N)=O)NC(=O)[C@H](Cc2c[nH]c3ccccc23)NC(=O)[C@H](C)NC(=O)[C@H](Cc2ccccc2)NC(=O)CNC(=O)[C@H](CCCCN)NC(=O)[C@H](Cc2ccccc2)NC(=O)[C@H](Cc2ccccc2)NC(=O)[C@H](CCCCN)NC(=O)OCC2c3ccccc3-c3ccccc32)C(C)C)CSSC[C@@H](C(=O)N[C@@H](Cc2c[nH]cn2)C(=O)N[C@@H](CCCNC(=N)N)C(=O)N[C@@H](CCCNC(=N)N)C(=O)N[C@@H](C)C(=O)N[C@@H](CC(N)=O)C(N)=O)NC(=O)[C@H](C(C)C)NC(=O)[C@H](CCCNC(=N)N)NC1=O
peptide remaining (HPLC; trypsin buffer; 0.50 h, 37 °C, added: trypsin 1 % w/v): 72.4% and 69.2% and 69.3%

CN(C)[C@H]1C[C@@]23CC[C@@]4(O2)C(=CC[C@]2(C)[C@@H](c5ccc6ccncc6c5)CC[C@H]24)C=C3[C@@H](O)[C@@H]1O
inhibition (MAP4K2 (Homo sapiens, UniProt Q12851); ATP probe labelling, inhibitor, KiNativ profiling; 0.1 µM): 8.4%

CS(C)(=O)=Nc1ccc(-c2ccc(-c3nc4cc(O[C@@H]5CO[C@H]6[C@@H]5OC[C@H]6O)[nH]c4cc3F)cc2)cc1
inhibition (ACVRL1 (Homo sapiens, UniProt P37023); enzyme activity, inhibitor; 10 µM): 0%

CC(=O)NCCCC[C@@H]1NC(=O)[C@H](Cc2c[nH]c3c(C)cccc23)NC(=O)[C@H]([C@@H](C)O)NC(=O)[C@H](CC(N)=O)NC(=O)[C@@H](NC(C)=O)C(C)(C)SSC(C)(C)[C@@H](C(=O)N[C@@H](Cc2ccc(OCCN)cc2)C(=O)N[C@@H](Cc2ccc3ccccc3c2)C(=O)NC2(C(=O)N[C@@H](CCC(=O)O)C(=O)N[C@@H](CC(N)=O)C(=O)N[C@@H](Cc3cccnc3)C(=O)N(C)CC(N)=O)CCOCC2)NC1=O
plasma protein binding (equilibrium dialysis; mouse, plasma; 1 µM): 55.8 ± 2.7%

C=Cc1c(C)c2cc3nc(c(CC(=O)[O-])c4[n-]c(cc5nc(cc1[n-]2)C(C)=C5CC)c(C)c4C(=O)[O-])C(CCC(=O)[O-])C3C.[Cu+2].[Na+].[Na+].[Na+] (stereo not drawn)
blood urea nitrogen (Wistar rat, female; oral, 500 mg/kg daily, 28 days): 19.2 ± 1.6 mg/dL

CN1Cc2cc(Cl)ccc2-n2c(nnc2C2CCN(c3cccc([18F])n3)CC2)C1
tissue uptake (C57BL/6 mouse male, spleen; intravenous, 3.7 MBq, 60 min): 2.89 ± 0.27 %ID/g

C=C/C=C/C[C@@H](C)[C@@H](O)[C@H]1C(=O)N[C@@H](CC)C(=O)N(C)CC(=O)N(C)[C@@H](CC(C)C)C(=O)N[C@@H](C(C)C)C(=O)N(C)[C@@H](CC(C)C)C(=O)N[C@@H](C)C(=O)N[C@H](C)C(=O)N(C)[C@@H](CC(C)C)C(=O)N(C)[C@@H](CC(C)C)C(=O)N(C)[C@@H](C(C)C)C(=O)N1C
plasma total Ca2+ (Wistar Kyoto rat, male, plasma; ip, 0.5 mg/kg/day, day 28, at sacrifice): 2.63 ± 0.05 mmol/L

Repeated from above:
CC(C)[C@H]1NC(=O)C[C@H]2/C=C/CCSSC[C@@H](NC1=O)C(=O)N[C@H](Cc1cccc3ccccc13)C(=O)NCC(=O)O2
inhibition (MAP3K10 (Homo sapiens, UniProt Q02779); enzyme activity, inhibitor; 10 µM): -0.8%

O=C1NC2(CC2)COc2ncc(F)cc2[C@H]2COCCN2c2ccn3ncc1c3n2
alanine aminotransferase activity (Sprague-Dawley rat, female, serum; oral, 20 mg/kg/day, 4 weeks daily, end of recovery period): 21 ± 4.5 U/L

CC(C)[C@@H]1NC(=O)CNC(=O)[C@H](CC(N)=O)NC(=O)[C@H](CCCNC(=N)N)NC(=O)[C@H](Cc2ccc(O)cc2)NC(=O)[C@H](C(C)C)NC(=O)[C@@H](NC(=O)[C@@H](NC(=O)[C@H](CC(N)=O)NC(=O)[C@H](Cc2c[nH]c3ccccc23)NC(=O)[C@H](C)NC(=O)[C@H](Cc2ccccc2)NC(=O)CNC(=O)[C@H](CCCCN)NC(=O)[C@H](Cc2ccccc2)NC(=O)[C@H](Cc2ccccc2)NC(=O)[C@H](CCCCN)NC(=O)OCC2c3ccccc3-c3ccccc32)C(C)C)CSSC[C@@H](C(=O)N[C@@H](Cc2c[nH]cn2)C(=O)N[C@@H](CCCNC(=N)N)C(=O)N[C@@H](CCCNC(=N)N)C(=O)N[C@@H](C)C(=O)N[C@@H](CC(N)=O)C(N)=O)NC(=O)[C@H](C(C)C)NC(=O)[C@H](CCCNC(=N)N)NC1=O
peptide remaining (HPLC; trypsin buffer; 0.50 h, 37 °C, added: trypsin 1 % w/v): 72.4% and 69.2% and 69.3%
